# Assay results from different studies.
# Protocols differ between the studies behind these lines.
Compound,cell line,assay,setting,scale,endpoint,result
COCCOCCOCCOc1ccc(-n2cc(CCCN(CCNc3ccnc4cc(Cl)ccc34)C(=O)CCC(=O)OC3OC4OC5(C)CCC6C(C)CCC(C3C)C46OO5)nn2)cc1 (stereo not drawn),HL-60,"cell growth or viability, resazurin","10 µM, 48 h",,inhibition,72.2%
CC/C=C\C/C=C\C/C=C\C/C=C\C/C=C\C/C=C\CCC(=O)Nc1ccn(C2OC(CO)C(O)C2(F)F)c(=O)n1 (stereo not drawn),HCC 2998,NCI60 screen,,,CC50,67.5 µM
COC(=O)[C@H](CC(C)C)NC(=O)[C@@H]1CCCN1C(=O)[C@@H](NC(=O)[C@H](CCC(=O)C=[N+]=[N-])NC(=O)OCc1ccccc1)C(C)C,Huntington disease patient myoblasts,refers to: cytochrome c,"50 µM, 2 h",,mRNA level,increased
[Cl][Os][Ge]([Cl])([Cl])[Cl].c1ccc(P(c2ccccc2)c2ccccc2)cc1.c1ccccc1,Ehrlich ascites carcinoma cells,MTT,,reference: IC50 PBMC over IC50 EAC,selectivity index,10.3
CC[C@H]1OC(=O)[C@H](C(C)C)NC(=O)[C@H](C)OC(=O)[C@@H](C(C)C)NC(=O)[C@@H](C(C)C)OC(=O)[C@H](C(C)C)NC(=O)[C@H](C)OC(=O)[C@@H](C(C)C)NC(=O)[C@@H](C(C)C)OC(=O)[C@H](C(C)C)NC(=O)[C@H](C)OC(=O)[C@@H](C(C)C)NC1=O,U-251,PI staining flow cytometry,"0.8 µM, 12 h",,G2/M phase cells,15.7%
C[C@H]1C(OCCCCCCCC[P+](c2ccccc2)(c2ccccc2)c2ccccc2)O[C@@H]2O[C@@]3(C)CCC4[C@H](C)CCC1[C@]42OO3 (stereo partly drawn),J82 and T24,"western blot, refers to: p21","concentration not given, 48 h",,protein level,increased
CC[C@H](C)[C@H](NC(=O)[C@H](Cc1ccccc1)NC(=O)[C@H](CC(=O)O)NC(=O)[C@H](CCCCN)NC(=O)[C@H](C)NC(=O)[C@H](CCCCN)NC(=O)[C@H](CC(N)=O)NC(=O)[C@H](CC(C)C)NC(=O)[C@H](Cc1c[nH]c2ccccc12)NC(=O)[C@H](CCC(=O)O)NC(=O)[C@H](CCCCN)NC(=O)[C@@H](NC(=O)CNC(=O)[C@H](C)N)[C@@H](C)O)C(=O)N[C@@H](CCCCN)C(=O)N[C@@H](CCC(=O)O)C(=O)N[C@@H](CCCCN)C(=O)NCC(=O)N[C@@H](CC(C)C)C(=O)N[C@@H](CCC(=O)O)C(=O)N[C@@H](CCSC)C(=O)N[C@@H](CC(C)C)C(=O)N[C@@H](CO)C(=O)N[C@@H](C)C(=O)N[C@@H](C)C(=O)N[C@@H](C)C(=O)N[C@@H](CC(N)=O)C(=O)N[C@@H](C)C(=O)N[C@@H](C)C(=O)N[C@@H](CC(C)C)C(=O)N[C@@H](CC(N)=O)C(=O)O,mouse DRG neurons,,"10 µM, 90 s",,intracellular calcium increase,inactive
C=CCc1cc(OC)c(OC)c(OC)c1OC,HCT-116,"cell growth or viability, MTT",72 h,,GI50,> 250 µM
CC(=O)O[C@@H]1[C@H](OC(C)=O)[C@@H](C)O[C@H]1n1cc(F)c(NC(=O)/C=C/c2ccc(O)c(O)c2)nc1=O,ASPC1,"cell viability, MTT",,reference: NHDF fibroblasts over ASPC1,selectivity index,1.23
O=C(O)CCC(NP(=O)(O)OCCC[C@@H](NC(=O)CCC(NC(=O)CCCCCNC(=O)c1ccc([18F])cc1)C(=O)O)C(=O)O)C(=O)O (stereo partly drawn),CWR22Rv1,,2 h,,internalized fraction,84.2%
CC(C)[C@H](NC(=O)c1ccc(CCc2nc3c(c(=O)[nH]2)CCC3)cc1)C(=O)NC1CNC1,mouse osteoclast precursors,,"10 µM, 5 to 7 d, together with: M-CSF and RANKL",reference: control,osteoclast differentiation,79%
C[C@H]1C(OCCCCCCCCCCC[P+](c2ccccc2)(c2ccccc2)c2ccccc2)O[C@@H]2O[C@@]3(C)CCC4[C@H](C)CCC1[C@]42OO3 (stereo partly drawn),T24,MTT,72 h,reference: HUVEC IC50 over T24 IC50,selectivity index,0.97

# A few entries again:
Compound,cell line,assay,setting,scale,endpoint,result
[Cl][Os][Ge]([Cl])([Cl])[Cl].c1ccc(P(c2ccccc2)c2ccccc2)cc1.c1ccccc1,Ehrlich ascites carcinoma cells,MTT,,reference: IC50 PBMC over IC50 EAC,selectivity index,10.3
